Published values of several laboratories.
Every numbered part comes from another study and shows a few of its results, in no order.

Block 1 — method: universal PBM; molecule type: double-stranded DNA, one strand shown; matrix: in vitro; concentration: 600 nM; reading: higher = stronger binding
Target: Sal-like protein 4, full length isoform A (SALL4, Homo sapiens, UniProt Q9UJQ4, residues 1-1053)
Sequence of UniProt Q9UJQ4 (whole entry, looked up): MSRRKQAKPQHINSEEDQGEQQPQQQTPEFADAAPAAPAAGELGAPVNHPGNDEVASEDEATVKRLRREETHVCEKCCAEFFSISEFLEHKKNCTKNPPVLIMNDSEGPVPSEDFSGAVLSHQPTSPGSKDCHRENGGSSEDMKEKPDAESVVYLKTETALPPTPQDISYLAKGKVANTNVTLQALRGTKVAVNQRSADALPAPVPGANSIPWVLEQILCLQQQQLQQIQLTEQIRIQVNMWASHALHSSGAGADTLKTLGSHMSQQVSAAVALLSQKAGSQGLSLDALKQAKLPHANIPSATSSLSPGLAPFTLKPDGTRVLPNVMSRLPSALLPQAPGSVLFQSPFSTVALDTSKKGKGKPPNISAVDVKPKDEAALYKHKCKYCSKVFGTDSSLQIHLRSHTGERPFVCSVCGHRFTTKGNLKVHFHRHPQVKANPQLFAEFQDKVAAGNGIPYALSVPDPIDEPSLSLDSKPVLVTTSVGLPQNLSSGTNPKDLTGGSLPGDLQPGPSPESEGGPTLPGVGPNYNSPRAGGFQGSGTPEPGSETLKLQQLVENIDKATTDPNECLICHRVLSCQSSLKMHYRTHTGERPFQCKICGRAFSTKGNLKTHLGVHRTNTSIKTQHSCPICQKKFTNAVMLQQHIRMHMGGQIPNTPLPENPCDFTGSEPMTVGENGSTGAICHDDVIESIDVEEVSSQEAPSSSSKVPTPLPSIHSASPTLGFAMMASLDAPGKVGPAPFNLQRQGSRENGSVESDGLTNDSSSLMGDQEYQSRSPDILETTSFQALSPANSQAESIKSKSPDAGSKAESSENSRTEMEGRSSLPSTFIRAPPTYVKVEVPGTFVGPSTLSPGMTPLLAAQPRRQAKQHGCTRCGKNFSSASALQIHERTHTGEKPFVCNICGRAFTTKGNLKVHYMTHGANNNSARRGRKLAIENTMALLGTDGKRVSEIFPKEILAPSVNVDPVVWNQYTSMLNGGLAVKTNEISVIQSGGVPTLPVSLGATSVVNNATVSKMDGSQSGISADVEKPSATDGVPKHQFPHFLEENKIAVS
Setting: 8-mer, flanks averaged, mean of replicates
Oligonucleotide	E-score
CCTTTATA	0.231
GACACCAA	0.157
CATATGGA	0.0954
CAGGACAA	0.0809
CTAGAGCA	-0.202
GCAATGGA	0.0789
CTCTTCGA	-0.0398
GCTTGGAA	-0.103

Block 2 — organism: SARS-CoV-2; effect on: cytopathic effect; cell line: Vero E6; concentration: 10 µM
SMILES	inhibition
C[C@H](NC(=O)/C(C#N)=C/c1cccc(Br)n1)c1ccccc1	-24.4%
N[C@@H](C(=O)N[C@@H]1C(=O)N2C(C(=O)O)=C(Cl)CS[C@H]12)c1ccccc1	6.9%
CCCCCCNC(=O)n1cc(F)c(=O)[nH]c1=O	-2.6%

Block 3 — effect on: enzyme activity; action: inhibitor; concentration: 20 µM
Target: Replicase polyprotein 1ab, polymerase (rep, Severe acute respiratory syndrome coronavirus 2, UniProt P0DTD1)
Compound	inhibition
CN1c2c([nH]c(N)nc2=O)NC[C@@H]1CNc1ccc(C(=O)N[C@@H](CCC(=O)O)C(=O)O)cc1	3.69%
CC(C)c1noc(N2CCC(COc3ccc(-c4ccc(S(C)(=O)=O)cc4)nc3)CC2)n1	0.31%
CSCC[C@H](NC(=O)[C@H](CC(C)C)NC(=O)[C@@H](Cc1c[nH]c2ccccc12)NC(=O)[C@H](Cc1ccccc1)N(C)C(=O)[C@@H](Cc1c[nH]c2ccccc12)NC(=O)[C@@H](N)CCCN=C(N)N)C(N)=O	8.67%
CC(CNC(=O)c1cccnc1)NC(=O)c1cccnc1 (stereo not shown)	-5.4%
CCC(C)C(CC)C(N)=O (stereo not shown)	-0.39%
CCOC(=O)OC(C)OC1=C(C(=O)Nc2ccccn2)N(C)S(=O)(=O)c2ccccc21 (stereo not shown)	-2.27%
CC(C)N(CC[C@H](c1ccccc1)c1cc(CO)ccc1O)C(C)C	-3.11%
CC(C)NCC(O)c1ccccc1Cl (stereo not shown)	-0.2%
N[C@H]1CCN(O)C1=O	3.42%
Cc1cc(OCc2nc(-c3ccccc3Cl)cs2)ccc1OCC(=O)O	5.54%
C[C@@H](O)[C@H]1C(=O)N2C(C(=O)OCOC(=O)C(C)(C)C)=C(SC3CN(C4=NCCS4)C3)[C@H](C)[C@H]12	-2.62%
COc1ccc(S(=O)(=O)N2CCCN(S(=O)(=O)c3ccc(OC)c(OC)c3)CC2)cc1OC	1.11%
COc1ccccc1N1CCN(CCCCN2C(=O)c3ccccc3C2=O)CC1	2.23%
CC1(C(=O)O)NCCc2cc(O)c(O)cc21 (stereo not shown)	-0.55%
N[C@@H](CCC(=O)N[C@@H](CSN=O)C(=O)NCC(=O)O)C(=O)O	-8.85%
COc1cccc2cc(-c3nc([C@H]4CC[C@H](C(=O)O)CC4)n4ncnc(N)c34)[nH]c12	-7.42%
N=C(N)NN=C1C=CC(=NNC(N)=S)C=C1	3.54%
O=C1NC(=O)c2cc(Nc3ccccc3)c(Nc3ccccc3)cc21	-15.2%
NC(=O)Nc1cc(-c2cccc(F)c2)sc1C(=O)N[C@H]1CCCNC1	-7.63%
COc1ccc2c(O[C@@H]3C[C@H]4C(=O)N[C@]5(C(=O)NS(=O)(=O)C6CC6)C[C@H]5/C=C\CCCCN(C)C(=O)[C@@H]4C3)cc(-c3nc(C(C)C)cs3)nc2c1C	-5.06%
CCc1ccc(CCOc2ccc(CC3SC(=O)NC3=O)cc2)nc1 (stereo not shown)	-8.55%
CCn1c(-c2ccc(Cl)cc2)n[nH]c1=O	-7.92%
O=C(OCC(COC(=O)c1cccnc1)(COC(=O)c1cccnc1)COC(=O)c1cccnc1)c1cccnc1	5.68%
O=C(O)[C@@H](O)[C@H](O)[C@H](O)[C@@H](O)C(=O)O	1.41%
Cn1cccc1/C=C1\C(=O)NC(=O)c2ccccc21	-2.06%

Block 4 — method: RNA Bind-n-Seq; molecule type: RNA; matrix: in vitro; concentration: 200 nM; setting: whole 134-nt RNA, ends assumed; with: 150 mM KCl; baseline: input library; reading: higher = stronger binding
Target: Ras GTPase-activating protein-binding protein 1, full length (G3BP1, Homo sapiens, UniProt Q13283)
Sequence of UniProt Q13283 (whole entry, looked up): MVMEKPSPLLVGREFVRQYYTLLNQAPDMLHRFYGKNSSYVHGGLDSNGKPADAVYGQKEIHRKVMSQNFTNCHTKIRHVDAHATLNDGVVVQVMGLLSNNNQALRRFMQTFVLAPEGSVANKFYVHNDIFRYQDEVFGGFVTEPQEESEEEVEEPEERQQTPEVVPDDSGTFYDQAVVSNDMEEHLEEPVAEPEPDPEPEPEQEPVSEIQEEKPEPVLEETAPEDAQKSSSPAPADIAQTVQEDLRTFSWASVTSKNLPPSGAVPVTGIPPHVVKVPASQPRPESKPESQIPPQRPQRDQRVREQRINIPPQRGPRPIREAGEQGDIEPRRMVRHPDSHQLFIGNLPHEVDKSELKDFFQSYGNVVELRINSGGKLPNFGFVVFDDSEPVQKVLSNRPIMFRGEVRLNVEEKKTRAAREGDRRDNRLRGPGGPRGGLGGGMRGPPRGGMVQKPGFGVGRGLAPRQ
Shared flanks, not repeated: GGGAGUUCUACAGUCCGACGAUC … UGGAAUUCUCGGGUGUCAAGG
Oligonucleotide	log2 enrichment
AAGUCCUGUGCUACACAUCGUAUGUACCGAAUCGGGGUUUUUGGGGAGGGGUGGGGAAAGUAUUAUGUUACGCCGUUCGGAUCUGCACUU	0.838
UCAGAAGGUCUUUUAAGUCUGACCACCCAGCUUGUCAAGGAAAAACUCUCCACCUGUGAAGCAGAGGACAUCGCCACCUAUGAGCAGAAU	0.828
CCUCAAGUCCUGUGCUACACAUCGUAUGUACCGAAUCGGGGAGGGGAGGAGGGAAAGUAUUAUGUUACGCCGUUCGGAUCUGCACUUCCA	1.14
CUCAAGUCCUGUGCUACACAUCGUAUGUACCGAAUCGGGGAAGGAAGGAAGGGAAAGUAUUAUGUUACGCCGUUCGGAUCUGCACUUCCA	-0.045
UGCCUGUAUGGAGUGGAAUGAAUGUUGCUGGUGUCUCUCUGAAGACUCUGCACCCAGAUUUAGGGACUGAUAAAGAUAAGGAACAGUGGA	-0.482

Block 5 — method: RNA Bind-n-Seq; molecule type: RNA; matrix: in vitro; concentration: 365 nM; baseline: no-protein control; reading: higher = stronger binding
Target: RNA binding protein fox-1 homolog 2, RRM domain, GST-SBP tag (RBFOX2, Homo sapiens, UniProt O43251-10, residues 100-194)
Setting: natural RNA segment, single round, ends assumed
Shared flanks, not repeated: GGGAGUUCUACAGUCCGACGAUC … UGGAAUUCUCGGGUGCCAA
Residues (chain): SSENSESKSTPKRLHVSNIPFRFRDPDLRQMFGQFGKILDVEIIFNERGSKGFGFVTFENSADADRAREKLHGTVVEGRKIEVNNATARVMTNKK
Oligonucleotide	RBNS enrichment (R)
GUAUAAGAAACUGCAUCCUGCCUCCAGCCCCCUUGGGGCAGGGAUUGGCUUGGAACAGAGGUUGGCCCCGCCAGGCCGGGGAAGGUUGGAGAAGCCCCCAGGAGGAGGGC	0.837
CAGACUCGGGAACUGCCUGAAUGUGGUUUGGGACACGAGACCUCAUCAUAUUGAUGAGCGAACAAACAAGAACAUUUCCUCCCUCCCCUCCUUUGAAUUGAAAUGGCACA	1.82
CUACCCCACCCUCUCGCCCCUGGCACCUGUCUUCUAUUUGUCGAGUUCACUGUUGAUCCUGUUGUAGGUGGUUGGGCUGCUGGUCACCAUGCCACCACUUGGGUUUUUUC	0.889
AGUACUGUGCUAUAUGUAGCCGCCUUUACAGAUGUUAUUAACCUAUAGUAGUUUACUAUUAACUAGGAAGACUGGUGUAUGAGGAGGGAGACAUUCUGUAAUAAGAUUAA	0.386
CCACCUUGACGGUGGGGCGUAGACUUGACAACAUCCCACAGUGGCACGGAGAGAAGGCCCAUACCUUCUGGUUGCUUCAGACCUGACACCGUCCCUCAGUGAUACGUACA	0.182
CGUUUGGCGCUGUUGUAUGGUGUGAUUGUCAGUGUAUGGUGUCACUUCCUAUAGCCAGCAGCAGACUUUGCCUUCCCUAUAGCACUUAGCUGAGCAUUACUUUAUGAUGA	0.617
GUAGUUUCUAUUUUAUAGAAUAUUUAGUCUGAGAAGUUAAAGAAACUAGACCUAGGAUCUCAAAAGUUUUAAAACUUUGACGUUUUCAUAUGUUUGUUUAUUAAUAGGAU	0.607
UGACAGCGGUAGCAGCUACCUAUUCAAGACGCCUCACACAAAAUCUGCCUUAGAAAGUUAAUAUAUUUUAAAUUAUUUUAAAAGAAACUCAACAUCUUAUUCUUUGGCCU	0.413

Block 6 — cell line: HEK-293T; effect on: pseudovirus infection; method: FDA-approved drug library screen; organism: VSV pseudotyped with SARS-CoV-2 spike; concentration: 10 µM; time: 16 h; baseline: vehicle-treated
SMILES	GFP-positive cells [%]
CN1CC(=O)N2[C@H](c3ccc4c(c3)OCO4)c3[nH]c4ccccc4c3C[C@@H]2C1=O	111
CO[C@H]1O[C@@H]2O[C@@]3(C)CC[C@H]4[C@H](C)CC[C@@H]([C@H]1C)[C@@]24OO3	55.6
CC(C)c1nc(N(C)S(C)(=O)=O)nc(-c2ccc(F)cc2)c1/C=C/[C@@H](O)C[C@@H](O)CC(=O)O	83.3

Excerpt of the above (block 3):
Compound	inhibition
COc1cccc2cc(-c3nc([C@H]4CC[C@H](C(=O)O)CC4)n4ncnc(N)c34)[nH]c12	-7.42%
CSCC[C@H](NC(=O)[C@H](CC(C)C)NC(=O)[C@@H](Cc1c[nH]c2ccccc12)NC(=O)[C@H](Cc1ccccc1)N(C)C(=O)[C@@H](Cc1c[nH]c2ccccc12)NC(=O)[C@@H](N)CCCN=C(N)N)C(N)=O	8.67%
CC1(C(=O)O)NCCc2cc(O)c(O)cc21 (stereo not shown)	-0.55%
